Measured values collected from several papers.
Numbered parts are unrelated; each lists some results of a single study.

Block 1
Target: RNA binding protein fox-1 homolog 2, RRM domain, GST-SBP tag (RBFOX2, Homo sapiens, UniProt O43251-10, residues 100-194)
Technique: RNA Bind-n-Seq
Form: RNA
Sample: in vitro
Concentration: 365 nM
Setting: natural RNA segment, single round, ends assumed
Relative to: no-protein control
Reading: higher = stronger binding
For `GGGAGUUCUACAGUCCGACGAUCUUCACUGUGGAGACAAUGACAGUAUUCUCUGUGCCAGUGUCGCUGAUGGAGCUCCCCCUCCCCACAGGGCUGCCAUUACCAGACCACGGCCCUGCAGGGCCCUGGGCUCCUGGAAUUCUCGGGUGCCAA`, “RBNS enrichment (R)” read 0.364.
`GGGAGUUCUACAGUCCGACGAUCUGAUUUUCCAAAACCACAGCUUCAGCAGCAACAAUCAGAAUGUCCAAAUGCUGUCCUUUCCCUUACAGAGAAGAACAAUGGUAACUAAAAGCUGCAUAUAACUAGCAAUAUGGAAUUCUCGGGUGCCAA` — result for “RBNS enrichment (R)”: 0.474.
For `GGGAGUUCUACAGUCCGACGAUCAAAGCCUUGCAAGACACUCCCUUGCUCAUUUGCCAUAUUUAGAUGUCUUAGUGGAGUCAGAGCCCUGUUUGGUAUGUGUUUUUCAUGCUAAGUCUAAAUUGUCUUUUCAUUGGAAUUCUCGGGUGCCAA`, “RBNS enrichment (R)” read 1.21.
`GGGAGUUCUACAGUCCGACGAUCCUUCUGACGUCAUGUAGACAGAGGAGCAUUGGAGUCAUAAAGUCUGUAGUCUUAACUCUAACCCUCUGGUGCUGCUCUCUGAGCAGCAGUAUUUACAAUAACCGAGCUAUUGGAAUUCUCGGGUGCCAA`: “RBNS enrichment (R)” 0.399.
`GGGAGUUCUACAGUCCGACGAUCGACUUGUUGGGUGUGAAGAUAAAUGCAUGUAAGAGCAGCCCUUUGGAGGCUGAGGCAGGAGAAUCUCAAGUUCAGGGCCAGCCUGGGCCACAUACUGAUACCCUGUCUCUUGGAAUUCUCGGGUGCCAA`: “RBNS enrichment (R)” 20.6.
`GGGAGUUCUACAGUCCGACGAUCAGAAACAGAACUUUUAAAACUAUAGGCUGCUGUGUUGGGGCCAGAAAUAAGGUGACAAGUAAAGACUUUUAUAAUACCUACCUUCAAAAUUAGAAUCAGCAGCACUGUACUGGAAUUCUCGGGUGCCAA` — result for “RBNS enrichment (R)”: 0.565.
For `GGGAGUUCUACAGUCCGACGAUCCAGCAUUUUCCUCUGCUUUGAAAGCCCCAGAAAUCAGUGUUGGCCAUGAUGACAACUACAGAAAAACCAGAGGCAGCUUCUUUGCCAAGACCUUUCAAAGCCAUUUUAGGUGGAAUUCUCGGGUGCCAA`, “RBNS enrichment (R)” read 0.681.
Under “RBNS enrichment (R)”, `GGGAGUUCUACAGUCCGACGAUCCAGUGCACUUUGACAGUAGAUGCUGUCCUGCAGCUGUUACAGCUGAUAGUUGACCUCUGAGUCAGUGAGACCAACAAUGAGUGGUGGCCCCAGGCUUUGUUUCCUUUGCUUGGAAUUCUCGGGUGCCAA` is recorded as 0.396.

Block 2
Target: Ras GTPase-activating protein-binding protein 1, C-terminal RGG region (G3BP1, Homo sapiens, UniProt Q13283)
UniProt Q13283, sequence (whole entry, looked up): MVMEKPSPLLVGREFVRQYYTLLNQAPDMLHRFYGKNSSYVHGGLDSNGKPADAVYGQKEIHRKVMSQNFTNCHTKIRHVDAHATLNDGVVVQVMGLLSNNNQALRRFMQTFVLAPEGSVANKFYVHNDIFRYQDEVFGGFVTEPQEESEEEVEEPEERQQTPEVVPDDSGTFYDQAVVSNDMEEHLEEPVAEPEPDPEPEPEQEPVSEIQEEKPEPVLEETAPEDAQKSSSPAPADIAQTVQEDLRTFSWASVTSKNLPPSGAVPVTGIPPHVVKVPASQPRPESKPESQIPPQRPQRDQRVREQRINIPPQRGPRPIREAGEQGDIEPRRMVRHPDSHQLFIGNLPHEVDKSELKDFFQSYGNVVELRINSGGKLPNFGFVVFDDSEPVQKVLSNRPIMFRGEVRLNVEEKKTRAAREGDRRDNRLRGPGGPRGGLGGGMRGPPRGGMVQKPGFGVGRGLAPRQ
Technique: RNA Bind-n-Seq
Form: RNA
Sample: in vitro
Concentration: 1 µM
Setting: whole 134-nt RNA, ends assumed
With: 150 mM KCl
Relative to: input library
Reading: higher = stronger binding
`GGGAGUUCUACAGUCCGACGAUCGCAGGAAGUAAAAACAAAUGGAAAUGCUUCGGAUAGUGGCAGGGGUGGGGGUUGCUAAGGAGAGGGUGGGAUGGGAGUGGGUAAAGAGUUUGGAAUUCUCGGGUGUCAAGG` has a log2 enrichment of 1.5.
For `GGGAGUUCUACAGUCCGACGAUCUGGGAGGUGGAUUUUGUUUAUUUUUUUAGCUCAUUUCCAGGGGUCGGAAUUUUUUUUUAAUAUGUGUCAUGAAUAAAGUUGUUUUUGAAAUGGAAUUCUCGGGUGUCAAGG`, the log2 enrichment was 2.62.
With `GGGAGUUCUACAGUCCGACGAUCUUUAUCAUGAGGAGCUCAACGCGCCCAUACGGAGAAACAAAGAAGAGCCCAAGGCCCGGCCCUUGAGAGUAGGUGACACGGAGAAGCCAGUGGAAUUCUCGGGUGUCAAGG` the log2 enrichment was -1.93.
`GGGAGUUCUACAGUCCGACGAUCUGGAAGCUCAUACGACUGUGAAAGAAGCUGAGGAUGACAACAUCUCGGUCACAAUCCAGGCUGAAGAUGCCAUCACUCUGGAUUUUGAUGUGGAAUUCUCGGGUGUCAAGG` gave a log2 enrichment of -1.77.
The log2 enrichment of `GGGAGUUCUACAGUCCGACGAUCUCCUCAAGUCCUGUGCUACACAUCGUAUGUACCGAAUCGGGAGGAGGAGGGGAAAGUAUUAUGUUACGCCGUUCGGAUCUGCACUUCCAGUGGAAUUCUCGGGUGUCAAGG` is reported as -0.594.
`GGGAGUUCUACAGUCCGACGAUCUGGCCCUGGUGGCAUGCGGGGAGGAAGAGGUGGCCUCAUGGAUCGUGGUGGUCCGGGUGGAAUGUUCAGAGGUGGCCGUGGUGGAGACAGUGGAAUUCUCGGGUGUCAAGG` gave a log2 enrichment of 1.88.
With `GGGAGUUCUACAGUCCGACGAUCGUCCUGUGCUACACAUCGUAUGUACCGAAUCGGGGUUUUUGGGGUUUUUGGUUUUUGGGAAAGUAUUAUGUUACGCCGUUCGGAUCUGCAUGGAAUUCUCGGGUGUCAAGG` the log2 enrichment was -0.901.
`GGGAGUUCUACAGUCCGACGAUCAAGUCCUGUGCUACACAUCGUAUGUACCGAAUCGGGGUUUGGGGAGGGGUUUGGGGAAAGUAUUAUGUUACGCCGUUCGGAUCUGCACUUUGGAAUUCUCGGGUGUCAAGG` gave a log2 enrichment of 1.9.
For `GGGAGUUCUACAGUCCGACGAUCUCCUGUGCUACACAUCGUAUGUACCGAAUCGGGGUUUUUUGGUUUUUUGGUUUUUUGGGGAAAGUAUUAUGUUACGCCGUUCGGAUCUGCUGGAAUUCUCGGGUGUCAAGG`, the log2 enrichment was -1.13.

Block 3
Target: Interferon regulatory factor 3, full length, phosphomimetic (IRF3, Homo sapiens, UniProt Q14653, residues 1-427, S386D/S396D/S398D/S402D/T404D/S405D)
UniProt Q14653, sequence (whole entry, unmodified, looked up): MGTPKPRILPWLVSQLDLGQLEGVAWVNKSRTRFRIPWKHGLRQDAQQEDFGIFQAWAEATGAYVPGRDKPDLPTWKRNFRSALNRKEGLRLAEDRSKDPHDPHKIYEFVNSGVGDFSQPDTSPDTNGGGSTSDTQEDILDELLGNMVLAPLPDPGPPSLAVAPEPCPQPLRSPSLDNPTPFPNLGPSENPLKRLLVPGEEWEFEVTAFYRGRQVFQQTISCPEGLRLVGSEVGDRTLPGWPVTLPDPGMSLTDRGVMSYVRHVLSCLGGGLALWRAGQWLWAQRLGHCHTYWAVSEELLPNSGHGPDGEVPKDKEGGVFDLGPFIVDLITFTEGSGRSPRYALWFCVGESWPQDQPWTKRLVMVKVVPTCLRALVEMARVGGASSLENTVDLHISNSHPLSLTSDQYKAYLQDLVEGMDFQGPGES
Technique: protein-binding microarray
Form: double-stranded DNA, one strand shown
Sample: in vitro
Concentration: 2540 nM top
Setting: 60-bp whole probe
With: salmon DNA 0.4 mg/ml
Relative to: random background probes
Reading: higher = stronger binding
Shared flanks, not repeated: GCCTAGCAC … GTCTTGATTCGCTTGACGCTGCTG
Under “fitted relative affinity”, `TTAGGTATCGGGGATCGGTTAGTGCTA` is recorded as 0.31 z-score.
`TTAGGTCTCCTACAGCTTTAGTGCTAG`: “fitted relative affinity” -0.169 z-score.
`GAGGAACTGGGGTATCGAGACGTGCTA` — result for “fitted relative affinity”: -0.903 z-score.
Under “fitted relative affinity”, `TTAGGTCTCCTTCTCCTTTCGTGCTAG` is recorded as 4.17 z-score.
`TCATTTTTCACTATTGCACTGTGCTAG`: “fitted relative affinity” 2.28 z-score.
`TCATCCTTTACTTTCTTACTGTGCTAG`: “fitted relative affinity” 1.87 z-score.
`TTAGGTTTCGACTATCCGTTAGTGCTA`: “fitted relative affinity” 2.71 z-score.
`TGTTACATTTATATCTTTGCGTGCTAG` — result for “fitted relative affinity”: 1.55 z-score.
`TTAGGTTTCGCTATCGGTTAGTGCTAG`: “fitted relative affinity” 6.02 z-score.
Under “fitted relative affinity”, `GACGGACTGAGGTTTCGGGACGTGCTA` is recorded as 1.35 z-score.
`GACGGAATCGACACTGGGGACGTGCTA`: “fitted relative affinity” -0.12 z-score.
`GACGGTATCGGGACTGCGGACGTGCTA`: “fitted relative affinity” 1.86 z-score.
`TTAGGACTACTTTTCCTTTAGTGCTAG` — result for “fitted relative affinity”: 1.72 z-score.
For `TTAGATCTCAGTTTCGCTTAGTGCTAG`, “fitted relative affinity” read 2.96 z-score.
Under “fitted relative affinity”, `GACGATCTCAGTATTGAGACGTGCTAG` is recorded as 0.533 z-score.
`GTCGATTTCAGTTCCGAGACGTGCTAG`: “fitted relative affinity” 3.93 z-score.
`GACGGTTTTGACACTGGGGACGTGCTA`: “fitted relative affinity” 0.686 z-score.
`TCAACTTTCTACTTCTCACTGTGCTAG`: “fitted relative affinity” 1.54 z-score.
`TCAACTTTCTCTGCTCTTTTCGTGCTA` — result for “fitted relative affinity”: 1.23 z-score.

Block 4
Target: Prothrombin, mature alpha-thrombin (F2, Homo sapiens, UniProt P00734)
Technique: aptamer microarray, sandwich
Form: DNA with 2'F-ANA
Sample: in vitro
Concentration: 200 nM
Setting: whole 15-mer aptamer, many near background
With: Cy3 exosite-II aptamer, 400 nM
Reading: higher = stronger binding
Strand: GGTTGGTGTGGTTGG
For `2'F-ANA at 2 3 7 8 10 11 13 14`, “mean fluorescence intensity” read 301 a.u.
`2'F-ANA at 3 4 6 7 8 9 10 12 14 15` — result for “mean fluorescence intensity”: 166 a.u.
`2'F-ANA at 5 6 7 8 9 13 14 15` — result for “mean fluorescence intensity”: 45.6 a.u.
`2'F-ANA at 1 2 4 7 8 11 12` — result for “mean fluorescence intensity”: 280 a.u.
For `2'F-ANA at 3 5 6 8 9 10 11 12 13 14`, “mean fluorescence intensity” read 53.3 a.u.
Under “mean fluorescence intensity”, `2'F-ANA at 1 2 3 5 9 12 13 14 15` is recorded as 46.2 a.u.
Under “mean fluorescence intensity”, `2'F-ANA at 2 3 6 7 8 9 11 13 14` is recorded as 292 a.u.
Under “mean fluorescence intensity”, `2'F-ANA at 2 4 5 7 8 9 10 14 15` is recorded as 48.2 a.u.
`2'F-ANA at 4 5 9 11 13 14`: “mean fluorescence intensity” 47 a.u.
Under “mean fluorescence intensity”, `2'F-ANA at 1 2 3 4 5 6 9 11 12 13 14 15` is recorded as 50.1 a.u.
`2'F-ANA at 2 3 6 7 9 10 12 13 14 15` — result for “mean fluorescence intensity”: 225 a.u.
For `2'F-ANA at 1 3 5 6 8 10 13 14 15`, “mean fluorescence intensity” read 51.2 a.u.
For `2'F-ANA at 1 2 4 5 10 14`, “mean fluorescence intensity” read 52.3 a.u.
`2'F-ANA at 1 7 9 13` — result for “mean fluorescence intensity”: 132 a.u.
For `2'F-ANA at 1 2 3 4 5 6 8 13 14`, “mean fluorescence intensity” read 50.4 a.u.
`2'F-ANA at 2 3 4 6 7 9` — result for “mean fluorescence intensity”: 591 a.u.
For `2'F-ANA at 1 2 3 4 5 6 7 9 10 12 15`, “mean fluorescence intensity” read 89.9 a.u.

Some of these lines once more (block 1):
`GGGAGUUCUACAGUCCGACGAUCCUUCUGACGUCAUGUAGACAGAGGAGCAUUGGAGUCAUAAAGUCUGUAGUCUUAACUCUAACCCUCUGGUGCUGCUCUCUGAGCAGCAGUAUUUACAAUAACCGAGCUAUUGGAAUUCUCGGGUGCCAA`: “RBNS enrichment (R)” 0.399.
For `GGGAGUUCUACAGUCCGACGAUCAAAGCCUUGCAAGACACUCCCUUGCUCAUUUGCCAUAUUUAGAUGUCUUAGUGGAGUCAGAGCCCUGUUUGGUAUGUGUUUUUCAUGCUAAGUCUAAAUUGUCUUUUCAUUGGAAUUCUCGGGUGCCAA`, “RBNS enrichment (R)” read 1.21.
For `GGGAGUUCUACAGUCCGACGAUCUUCACUGUGGAGACAAUGACAGUAUUCUCUGUGCCAGUGUCGCUGAUGGAGCUCCCCCUCCCCACAGGGCUGCCAUUACCAGACCACGGCCCUGCAGGGCCCUGGGCUCCUGGAAUUCUCGGGUGCCAA`, “RBNS enrichment (R)” read 0.364.
For `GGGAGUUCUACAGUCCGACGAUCCAGCAUUUUCCUCUGCUUUGAAAGCCCCAGAAAUCAGUGUUGGCCAUGAUGACAACUACAGAAAAACCAGAGGCAGCUUCUUUGCCAAGACCUUUCAAAGCCAUUUUAGGUGGAAUUCUCGGGUGCCAA`, “RBNS enrichment (R)” read 0.681.
`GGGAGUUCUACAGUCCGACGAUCAGAAACAGAACUUUUAAAACUAUAGGCUGCUGUGUUGGGGCCAGAAAUAAGGUGACAAGUAAAGACUUUUAUAAUACCUACCUUCAAAAUUAGAAUCAGCAGCACUGUACUGGAAUUCUCGGGUGCCAA` — result for “RBNS enrichment (R)”: 0.565.
`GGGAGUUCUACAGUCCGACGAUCUGAUUUUCCAAAACCACAGCUUCAGCAGCAACAAUCAGAAUGUCCAAAUGCUGUCCUUUCCCUUACAGAGAAGAACAAUGGUAACUAAAAGCUGCAUAUAACUAGCAAUAUGGAAUUCUCGGGUGCCAA` — result for “RBNS enrichment (R)”: 0.474.
